Measured values collected from several papers.
Protocols differ between the studies behind these lines. Numbers after ± are the reported error.
Chain of UniProt Q96CP6 (whole entry, looked up): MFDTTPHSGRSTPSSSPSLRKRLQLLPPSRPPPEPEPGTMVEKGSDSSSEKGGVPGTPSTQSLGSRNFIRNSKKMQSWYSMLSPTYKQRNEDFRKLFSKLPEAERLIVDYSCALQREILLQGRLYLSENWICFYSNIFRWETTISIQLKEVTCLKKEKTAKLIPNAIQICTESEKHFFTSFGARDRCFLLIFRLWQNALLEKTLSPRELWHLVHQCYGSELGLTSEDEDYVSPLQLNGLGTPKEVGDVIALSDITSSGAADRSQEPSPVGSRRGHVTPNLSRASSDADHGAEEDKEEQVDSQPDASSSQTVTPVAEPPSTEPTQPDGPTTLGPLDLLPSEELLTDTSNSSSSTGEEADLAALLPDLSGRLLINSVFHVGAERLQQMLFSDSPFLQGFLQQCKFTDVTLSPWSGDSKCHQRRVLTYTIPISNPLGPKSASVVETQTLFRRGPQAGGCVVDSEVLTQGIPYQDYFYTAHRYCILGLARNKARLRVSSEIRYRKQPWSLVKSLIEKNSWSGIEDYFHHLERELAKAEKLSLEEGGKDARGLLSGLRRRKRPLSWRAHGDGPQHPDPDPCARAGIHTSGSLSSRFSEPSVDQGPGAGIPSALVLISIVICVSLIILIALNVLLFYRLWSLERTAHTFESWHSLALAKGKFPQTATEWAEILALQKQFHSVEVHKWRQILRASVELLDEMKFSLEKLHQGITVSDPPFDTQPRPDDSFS

SMILES | tested on | assay | system | setting | how to read | quantity | value
CC(=O)N1CCC(C(=O)N2CCN3C(=O)c4cc(-c5ccccc5)ccc4NC(=O)C3C2)CC1 (stereo not shown) | Salmonella typhimurium | – | TA1535 | 1.58 µg/plate, added: rat liver S9 | – | revertants per plate | 15.5
C[C@H]1CN(c2n[nH]c3nc(N[C@H]4CC[C@H](NS(=O)(=O)CCC(F)(F)F)CC4)ncc23)CCO1 | Protein Aster-A (Homo sapiens, UniProt Q96CP6) | Kinobeads competition, refers to: GRAMD1A | – | 20 µM, unit not given | baseline: vehicle | remaining binding | 1.25
CCOC(=O)C1=C(CN2CCC[C@@H]2C(=O)Nc2cccc(B(O)O)c2)NC(c2nccs2)=N[C@H]1c1ccc(F)cc1Br | hepatitis B virus | – | HePAD38 | – | baseline: CC50 over EC50 | selectivity index | 483
[Cl-].[Cl-].[Pt+2].[Ru+2].c1ccc(-c2nccnc2-c2ccccn2)nc1.c1cnc2c(c1)ccc1cccnc12.c1cnc2c(c1)ccc1cccnc12 | Danio rerio | – | embryos | 90 µM, 72 h | – | hatching rate | 0%
O=[N+]([O-])c1ccc(N2CCC(NCCC(O)c3ccc(F)c4ccccc34)CC2)c(C(F)(F)F)c1 (stereo not shown) | Salmonella typhimurium | SOS/umu test | TA1535/pSK1002 | 0.004 mg/mL, 4 h, without S9, full range | – | survival | 37%
[Cl-].[Cl-].[Pt+2].[Ru+2].c1ccc(-c2nc3ccccc3nc2-c2ccccn2)nc1.c1cnc2c(c1)ccc1cccnc12.c1cnc2c(c1)ccc1cccnc12 | Danio rerio | – | embryos | 60 µM, 96 h | – | survival rate | 63.3 ± 3.4%
Fc1ccc(C2=CCNCC2)cc1 | Salmonella typhimurium | SOS/umu test | TA1535/pSK1002 | 0.25 mg/mL, 4 h, without S9, full range | – | survival | 93.8%
Cc1cc(C(=O)NC(C)(C)COc2cccc3c2C(N)=NS(=O)(=O)N3)cc(C)n1 | Salmonella typhimurium | Ames test, confirmatory | TA1535 | 5000 µg/plate, added: rat liver S9 | baseline: solvent control | revertant ratio | 0.8
CCOC(=O)C1=C(CN2CCC[C@@H]2C(=O)Nc2ccc(B(O)O)cc2)NC(c2nccs2)=N[C@@H]1c1ccc(F)cc1Br | hepatitis B virus | – | HepDES19 | – | baseline: CC50 over EC50 | selectivity index | 11
COc1cc2c(Oc3ccc4[nH]c(C)cc4c3F)ccnc2cc1OCC1(N)CC1 | – | – | paediatric recurrent refractory sarcoma | 8 mg | – | grade 3 Triglyceride elevation | 0%
CN1CC[C@@H](c2c(O)cc(O)c3c(=O)cc(-c4ccc(C(F)(F)F)cc4Cl)oc23)[C@@H]1CO | – | refers to: Leukopenia | relapsed AML | oral, 150 mg, grade 3-4, intermittent dosing | – | patients with adverse event | 0%
CC[C@H](C)[C@@H]1NC(=O)[C@@H]2CCCN2C(=O)[C@H](CC(C)C)NC(=O)[C@H](CC(C)C)NC(=O)CNC(=O)[C@@H](NC(=O)[C@@H](NC(=O)[C@H](CC(=O)O)NC(=O)CNC(=O)[C@@H](NC(=O)[C@H](C)NC(=O)CNC(=O)[C@H](CCCCN)NC(=O)[C@H](CC(C)C)NC(=O)[C@H](CC(C)C)NC(=O)[C@H](CCCCN)NC(=O)CNC(=O)[C@@H](NC(=O)[C@@H](N)CC(C)C)C(C)C)C(C)C)C(C)C)CSSC[C@@H](C(=O)O)NC1=O | – | RNA-seq, refers to: Cd69 mRNA | mouse traumatic brain injury, frontal cortex and hippocampus | dose not given | baseline: TBI plus compound vs TBI | log2 fold change | -3.47
COc1cccc(-c2n[nH]c(SCc3ccccn3)n2)c1OC | Salmonella typhimurium | Ames test, preincubation | TA98 | 0.031 mg/plate, with rat liver S9 | – | revertant colonies per plate | 30

For quick reference, copied from above:
SMILES | tested on | assay | system | setting | how to read | quantity | value
[Cl-].[Cl-].[Pt+2].[Ru+2].c1ccc(-c2nccnc2-c2ccccn2)nc1.c1cnc2c(c1)ccc1cccnc12.c1cnc2c(c1)ccc1cccnc12 | Danio rerio | – | embryos | 90 µM, 72 h | – | hatching rate | 0%
